Measured values pooled from the literature.
Lines come from different studies, so protocols differ.
Cell line: SK-MEL-28

C1=[N+]2CCCC[N+]3=Cc4ccc5[n]4[Au-]23[n]2c1ccc2-c1nc2ccccc2nc1-5.F[P-](F)(F)(F)(F)F  TGI (NCI60 five-dose screen): 4.35 -log M
CC(C)=CC1OC(C)(C)C2C=C3C(=O)C(Cl)=CC(O)C3C3C(O)C4OC4C(=O)C132 (stereo not drawn)  IC50 (cell growth or viability, MTS): 0.9 µM
[Cl-].[Cl-].[Ru+2].c1ccc(-c2ccccn2)nc1.c1ccc(-c2ccccn2)nc1.c1ccc2cc3nc4c5cccnc5c5ncccc5c4nc3cc2c1  GI50 (cell growth, SRB; dark, 1% O2 hypoxia): 37.9 µM
Cc1cccc(-c2cccc(C)n2)n1.Cc1cccc(-c2cccc(C)n2)n1.F[P-](F)(F)(F)(F)F.F[P-](F)(F)(F)(F)F.[Ru+2].c1ccc2c(-c3nc4c5cccnc5c5ncccc5c4[nH]3)c3ccccc3cc2c1  phototoxicity index (normoxia, added: green light 523 nm, 100 J/cm2; reference: dark over light EC50): 28
CCN(C(=O)c1cc(F)ccc1Oc1nncnc1N1CCC2(C1)CN([C@H](CCCN(C)CCOC)C(C)C)C2)C(C)C  GI50 (cell growth or viability; 7 days): > 10 µM
Cc1cccc(-c2cccc(C)n2)n1.Cc1cccc(-c2cccc(C)n2)n1.F[P-](F)(F)(F)(F)F.F[P-](F)(F)(F)(F)F.[Ru+2].c1ccc(-c2nc3c4cccnc4c4ncccc4c3[nH]2)cc1  EC50 (cell growth or viability, resazurin; dark): 101 µM
[Cl-].[Cl-].[Ru+2].c1ccc(-c2ccccn2)nc1.c1ccc(-c2ccccn2)nc1.c1ccc2cc3nc4c5cccnc5c5ncccc5c4nc3cc2c1  phototherapeutic index (visible light, oxygen 18.5%; reference: dark EC50 over light EC50): 1630
[Cl-].[Cl-].[Ru+2].c1cnc2c(c1)ccc1cccnc12.c1cnc2c(c1)ccc1cccnc12.c1csc(-c2ccc(-c3nc4c5cccnc5c5ncccc5c4[nH]3)s2)c1  EC50 (cell viability, resazurin; normoxia, added: 523 nm light 100 J cm^-2): ~0.5 µM
Cc1cccc(-c2cccc(C)n2)n1.Cc1cccc(-c2cccc(C)n2)n1.F[P-](F)(F)(F)(F)F.F[P-](F)(F)(F)(F)F.[Ru+2].c1cc2ccc3ccc(-c4nc5c6cccnc6c6ncccc6c5[nH]4)c4ccc(c1)c2c34  phototoxicity index (normoxia, added: blue light 453 nm, 100 J/cm2; reference: dark over light EC50): 13

For quick reference, copied from above:
Cc1cccc(-c2cccc(C)n2)n1.Cc1cccc(-c2cccc(C)n2)n1.F[P-](F)(F)(F)(F)F.F[P-](F)(F)(F)(F)F.[Ru+2].c1ccc(-c2nc3c4cccnc4c4ncccc4c3[nH]2)cc1  EC50 (cell growth or viability, resazurin; dark): 101 µM
